Assay results of several laboratories.
Each line is one published result; not all experiments were run side by side. ± gives the spread as reported.
Target: Fibroblast growth factor receptor 1 (FGFR1, Homo sapiens, UniProt P11362)
Sequence of UniProt P11362 (whole entry, looked up): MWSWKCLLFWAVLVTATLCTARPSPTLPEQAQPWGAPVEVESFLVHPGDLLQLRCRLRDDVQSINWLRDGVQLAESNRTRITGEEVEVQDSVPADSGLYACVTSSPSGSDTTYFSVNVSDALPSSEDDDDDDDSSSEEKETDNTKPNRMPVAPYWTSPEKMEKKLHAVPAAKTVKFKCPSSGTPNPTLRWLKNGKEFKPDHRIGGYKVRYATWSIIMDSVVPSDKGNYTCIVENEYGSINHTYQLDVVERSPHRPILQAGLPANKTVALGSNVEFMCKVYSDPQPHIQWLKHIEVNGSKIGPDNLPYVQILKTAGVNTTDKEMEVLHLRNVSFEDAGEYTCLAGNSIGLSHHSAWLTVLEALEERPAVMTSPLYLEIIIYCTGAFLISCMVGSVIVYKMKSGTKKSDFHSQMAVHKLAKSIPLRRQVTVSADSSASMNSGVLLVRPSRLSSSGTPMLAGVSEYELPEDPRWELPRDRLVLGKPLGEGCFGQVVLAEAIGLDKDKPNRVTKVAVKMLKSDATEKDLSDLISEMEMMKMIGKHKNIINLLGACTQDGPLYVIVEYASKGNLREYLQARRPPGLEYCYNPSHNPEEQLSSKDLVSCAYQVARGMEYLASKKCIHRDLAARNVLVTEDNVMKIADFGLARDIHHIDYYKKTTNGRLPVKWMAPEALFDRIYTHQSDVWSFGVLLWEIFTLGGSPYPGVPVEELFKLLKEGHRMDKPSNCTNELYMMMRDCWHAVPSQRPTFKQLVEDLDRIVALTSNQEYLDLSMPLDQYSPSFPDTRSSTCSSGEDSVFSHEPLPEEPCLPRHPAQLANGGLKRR

SMILES	assay	setting	scale	measurement	value
CNc1ncc2cc(-c3cc(OC)cc(OC)c3Cl)c(=O)n(CCc3ccc(NC(=O)/C(C#N)=C/C(C)(C)NC)cc3)c2n1	fluorescence competition			residence time	6600 ± 2460 min
OC(c1cccc(Oc2ccccc2)c1)c1c[nH]c2ncc(C(F)(F)F)cc12 (stereo not shown)	enzyme activity, inhibitor	1 µM		inhibition	34%
Cc1cc(C)c2oc(-c3c4c(N)n[nH]c(=O)c4nn3-c3ccccc3)c(C)c2c1	enzyme activity, inhibitor, ELISA	0.1 µM		inhibition	16.8%
COc1cc(-c2cnc3nc2NCCCNS(=O)(=O)c2cccc(c2)N3)ccc1F	differential scanning fluorimetry	10 µM	higher = stronger binding	thermal shift ΔTm	3.3 K
Cc1c(-c2c3c(N)n[nH]c(=O)c3nn2-c2ccccc2)oc2ccc(F)cc12	enzyme activity, inhibitor, ELISA	0.1 µM		inhibition	55.7%
C=C(C)C(=O)Nc1ccc(-c2c(-c3ccc(Oc4cccc(C)n4)cc3)c3c(N)ncnc3n2C)cc1	kinase activity, Caliper		relative to: FGFR1 over 5	fold potency loss	40 fold
FC(F)(F)c1cnc2[nH]cc(Cc3cccc(Oc4ccccc4)c3)c2c1	enzyme activity, inhibitor	0.1 µM		inhibition	21%
Cc1c(-c2c3c(N)n[nH]c(=O)c3nn2-c2ccccc2)oc2c(C)cccc12	enzyme activity, inhibitor, ELISA	0.1 µM		inhibition	17.8%
COc1cc(C(=O)NC2CCC(N3CCN(CC4CCC5(CCCC5)C4)CC3)CC2)c(F)cc1Nc1ncc2c(n1)N(C1CCCC1(F)F)CC(F)(F)C(=O)N2C (stereo not shown)	cell-free assay, TR-FRET	10 µM		inhibition	0.87%
FC(F)(F)c1cccc(Cc2c[nH]c3ncc(C(F)(F)F)cc23)c1	enzyme activity, inhibitor	1 µM		inhibition	19%

A few entries again:
SMILES	assay	setting	scale	measurement	value
FC(F)(F)c1cccc(Cc2c[nH]c3ncc(C(F)(F)F)cc23)c1	enzyme activity, inhibitor	1 µM		inhibition	19%
